Assay results of several laboratories.
Every numbered part comes from another study and shows a few of its results, in no order. Positions count from the first letter of the parent shown.

Block 1 — target: CCND3, cyclin fold, Cln2 fusion (human); method: yeast growth competition, sequencing; sample: yeast; setting: weak parent motif; reference: not given; reading: higher = stronger binding
Parent: E2F1 docking peptide (human); PPVKRRLDFETDH; partner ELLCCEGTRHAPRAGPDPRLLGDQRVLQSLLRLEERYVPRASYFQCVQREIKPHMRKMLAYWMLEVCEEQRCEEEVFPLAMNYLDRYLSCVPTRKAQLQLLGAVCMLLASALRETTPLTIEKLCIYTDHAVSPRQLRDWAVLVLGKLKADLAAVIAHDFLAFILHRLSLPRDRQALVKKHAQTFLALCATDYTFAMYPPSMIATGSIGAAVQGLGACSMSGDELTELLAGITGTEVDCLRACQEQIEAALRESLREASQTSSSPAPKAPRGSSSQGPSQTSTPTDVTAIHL
Change	normalised enrichment score
PPVKRRMDFETDH [L7M]	0.43
PPVKRRLDVETDH [F9V]	0.0355
PPVKRRLDQETDH [F9Q]	0.319
PQVKRRLDFETDH [P2Q]	0.0267
PPVNRRLDFETDH [K4N]	0.357
PPVKRRLDFDTDH [E10D]	0.896
PPVKRRTDFETDH [L7T]	0.00698
PPVKRRLMFETDH [D8M]	-0.0788
PPVKRRLDFETTH [D12T]	-0.0944
PPVMRRLDFETDH [K4M]	0.354
PPVKRRLDEETDH [F9E]	0.299
PPVKRRGDFETDH [L7G]	-0.0919
PPVKRRLDIETDH [F9I]	0.296
PPVRRRLDFETDH [K4R]	0.897
PPVKRRLNFETDH [D8N]	0.396
PPVSRRLDFETDH [K4S]	0.678
PPVERRLDFETDH [K4E]	0.0316
PPVKRRLDFETAH [D12A]	0.123
PPVKRRLDFETVH [D12V]	0.367
PPVKRRLDFEDDH [T11D]	0.892
PPVKRRLDFELDH [T11L]	0.247

Block 2 — method: protein binding microarray; form: double-stranded DNA, one strand shown; sample: in vitro; tested at: not given; reference: not given; reading: higher = stronger binding
Target: Histone acetyltransferase KAT6A, winged helix 2, GST fusion (KAT6A, Homo sapiens, UniProt Q92794, residues 85-181)
Setting: 8-mer, flanks averaged, mean of 2 arrays, mostly near background
Residues (chain): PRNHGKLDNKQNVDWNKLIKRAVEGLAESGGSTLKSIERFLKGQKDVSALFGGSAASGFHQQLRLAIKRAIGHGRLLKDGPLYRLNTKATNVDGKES
Sequence	E-score
CACCAGTA	-0.104
CCGCGTGA	0.102
ATTTTTTC	0.0869
ACGTAGAG	-0.281
CCTATGAG	-0.147
AAACTTAA	0.123
ATGTTTAC	0.00857
GCCACCGC	0.185
GGACGTTA	-0.124
ACCGCGAC	0.202
AAACTAGC	0.0397
CGCTTCCC	0.0189
TCTAGAAA	0.0152
TAGGAATA	-0.0557
TCGCCCAA	0.178
GTAACATA	-0.0388
AAGTCAGC	0.0991

Block 3 — target: MAFG, bZIP domain (human); method: DHFR protein complementation; sample: yeast; reference: wild-type JUN-FOS pair; reading: higher = stronger binding
Setting: single substitutions, most at no-binding floor
Parent: JUN, bZIP domain (human); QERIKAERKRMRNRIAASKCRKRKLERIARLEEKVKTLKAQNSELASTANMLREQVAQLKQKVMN; partner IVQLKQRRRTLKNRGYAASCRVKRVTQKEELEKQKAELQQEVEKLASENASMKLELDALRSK
Change	binding fitness
M51A	-1.29 natural log
S43E	-1.48 natural log
Q41T	-1.5 natural log
E54A	-1.51 natural log
E33L	-1.42 natural log
L59R	-1.38 natural log
A46L	-1.4 natural log
L45C	-1.45 natural log
T48C	-1.48 natural log

Other studies, line by line
Substance	target	test	system	setting	scale	endpoint	value
PhoQ, residues 284 288 289 292 302 303 SSCCRF	PhoP, residues 12 14 15 18 19 AQALL (Escherichia coli, UniProt P23836)	Sort-seq, measured: YFP reporter	E. coli	PhoQ-PhoP variant library, together with: 10 µM Mg2+	reference: high Mg2+ state, higher = stronger signaling	fold induction	10

For quick reference, copied from above (block 1):
Change	normalised enrichment score
PPVKRRLDIETDH [F9I]	0.296
PPVRRRLDFETDH [K4R]	0.897
PPVKRRLNFETDH [D8N]	0.396
PPVSRRLDFETDH [K4S]	0.678
PPVERRLDFETDH [K4E]	0.0316
